{"data": "Measured values pooled from the literature", "note": "Protocols differ between the studies behind these lines. Numbers after ± are the reported error."}
{"SMILES": "Cc1ncsc1-c1ccc(C(C)NC(=O)C2CC(O)CN2C(=O)C(NC(=O)CCCCCCCCCCN2CCCC(Nc3ncc(Cl)c(Nc4ccccc4S(=O)(=O)C(C)C)n3)C2)C(C)(C)C)cc1 (stereo not drawn)", "target or system": "22Rv1", "assay": "RNA-seq, measured: SMIM10L2B mRNA", "conditions": "concentration not given", "scale": "reference: DMSO", "endpoint": "log2 fold change", "value": -2.29}
{"SMILES": "COC1CN([C@H]2CC[C@H]([C@@]3(C)Oc4c(Cl)cc(C(=O)NCc5c(SC)cc(C)[nH]c5=O)c(C)c4O3)CC2)C1", "assay": "RNA-seq, measured: DNAJB5", "system": "human, whole blood", "conditions": "dose not given, 24 h", "scale": "reference: pretreatment baseline", "endpoint": "log2 fold change", "value": 1.32}
{"SMILES": "O=C(N/N=C/c1ccc2c(ccc[n+]2Cc2ccccc2)c1)c1cccc(C(=O)N/N=C/c2ccc3c(ccc[n+]3Cc3ccccc3)c2)n1", "target or system": "myc22 MYC G4-DNA parallel", "assay": "FRET melting", "conditions": "1 µM, K1 buffer, DNA 0.2 µM", "endpoint": "ΔTm", "value": "17.1 ± 0.5 °C"}
{"SMILES": "CNS(=O)(=O)Nc1nccc(Cc2c(C)c3ccc(Oc4ncccc4F)cc3oc2=O)c1F", "target or system": "HCC827", "assay": "cell viability", "conditions": "7 days", "endpoint": "IC50", "value": "> 1 µM"}
{"SMILES": "CN1CCCNC(=O)c2cccc(c2)C(=O)NCCCN(C)CCCNc2cccc3c2C(=O)c2cccc(c2C3=O)NCCC1", "target or system": "SAS", "assay": "RNA-Seq, measured: SLC11A2 mRNA", "conditions": "1 µM, 6 h", "scale": "reference: untreated cells", "endpoint": "log2 fold change", "value": -1.23}
{"SMILES": "C[n+]1cc(/C=N/NC(=O)c2ccc3ccc4ccc(C(=O)N/N=C/c5cc6ccccc6[n+](C)c5)nc4c3n2)cc2ccccc21", "target or system": "myc22 MYC G4-DNA parallel", "assay": "FRET melting", "conditions": "1 µM, K1 buffer, DNA 0.2 µM, added: ds26 10 µM", "endpoint": "ΔTm", "value": "11.7 ± 3.8 °C"}
{"SMILES": "Nc1ncc(-c2cc(-c3cnn(CC(F)(F)F)c3)ncc2F)nc1C(=O)NC1CNCC(F)C1 (stereo not drawn)", "target or system": "ERK1", "assay": "KINOMEscan competition binding", "conditions": "1 µM", "scale": "reference: DMSO control", "endpoint": "remaining binding", "value": "100%"}
{"SMILES": "C=CC(=O)Nc1cccc(Cn2ncc3cnc(Nc4cnn(CCOC)c4)nc32)c1", "target or system": "STK39 human", "assay": "binding, KINOMEscan", "conditions": "100 nM", "scale": "lower = stronger binding", "endpoint": "percent of control", "value": "100%"}
{"SMILES": "O=C(N/N=C/c1ccc2c(ccc[n+]2Cc2ccccc2)c1)c1ccc2ccc(C(=O)N/N=C/c3ccc4c(ccc[n+]4Cc4ccccc4)c3)nc2n1", "target or system": "myc22 MYC G4-DNA parallel", "assay": "FRET melting", "conditions": "1 µM, K1 buffer, DNA 0.2 µM", "endpoint": "ΔTm", "value": "15.7 ± 1.4 °C"}
{"note": "Repeated from above:"}
{"SMILES": "CN1CCCNC(=O)c2cccc(c2)C(=O)NCCCN(C)CCCNc2cccc3c2C(=O)c2cccc(c2C3=O)NCCC1", "target or system": "SAS", "assay": "RNA-Seq, measured: SLC11A2 mRNA", "conditions": "1 µM, 6 h", "scale": "reference: untreated cells", "endpoint": "log2 fold change", "value": -1.23}
